{"data": "Experimental data pooled from the literature", "note": "Each numbered part is a random draw from the data of one study; scales do not carry over between parts.", "chain of UniProt Q9UF33 (whole entry, looked up)": "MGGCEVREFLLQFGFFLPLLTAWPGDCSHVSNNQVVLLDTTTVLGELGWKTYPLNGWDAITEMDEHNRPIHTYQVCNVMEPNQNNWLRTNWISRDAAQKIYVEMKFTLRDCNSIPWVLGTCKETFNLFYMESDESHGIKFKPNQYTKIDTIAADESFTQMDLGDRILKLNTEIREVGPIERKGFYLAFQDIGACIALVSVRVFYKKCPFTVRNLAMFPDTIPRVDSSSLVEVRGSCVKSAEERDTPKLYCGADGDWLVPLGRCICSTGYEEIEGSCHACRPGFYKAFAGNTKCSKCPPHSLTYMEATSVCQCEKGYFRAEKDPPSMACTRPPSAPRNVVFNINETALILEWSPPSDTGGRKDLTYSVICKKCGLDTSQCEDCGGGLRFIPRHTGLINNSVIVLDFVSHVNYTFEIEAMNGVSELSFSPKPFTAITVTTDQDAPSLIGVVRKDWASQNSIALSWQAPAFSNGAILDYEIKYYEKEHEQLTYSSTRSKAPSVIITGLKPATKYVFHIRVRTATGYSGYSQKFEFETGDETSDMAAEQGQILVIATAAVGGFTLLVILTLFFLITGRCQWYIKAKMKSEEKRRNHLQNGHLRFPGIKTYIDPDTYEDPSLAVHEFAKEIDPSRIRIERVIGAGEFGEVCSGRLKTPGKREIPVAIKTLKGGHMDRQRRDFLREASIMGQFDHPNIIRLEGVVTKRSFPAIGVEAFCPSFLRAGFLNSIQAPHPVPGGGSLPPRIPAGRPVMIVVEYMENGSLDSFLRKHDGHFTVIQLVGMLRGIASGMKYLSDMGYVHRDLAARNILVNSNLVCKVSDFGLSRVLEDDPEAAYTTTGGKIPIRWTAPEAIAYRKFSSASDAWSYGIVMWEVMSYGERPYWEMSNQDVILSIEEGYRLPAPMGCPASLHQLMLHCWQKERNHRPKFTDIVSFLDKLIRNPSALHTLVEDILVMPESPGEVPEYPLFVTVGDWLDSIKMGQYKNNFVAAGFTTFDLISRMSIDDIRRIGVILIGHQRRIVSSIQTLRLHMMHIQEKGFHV", "chain of UniProt P48730 (whole entry, looked up)": "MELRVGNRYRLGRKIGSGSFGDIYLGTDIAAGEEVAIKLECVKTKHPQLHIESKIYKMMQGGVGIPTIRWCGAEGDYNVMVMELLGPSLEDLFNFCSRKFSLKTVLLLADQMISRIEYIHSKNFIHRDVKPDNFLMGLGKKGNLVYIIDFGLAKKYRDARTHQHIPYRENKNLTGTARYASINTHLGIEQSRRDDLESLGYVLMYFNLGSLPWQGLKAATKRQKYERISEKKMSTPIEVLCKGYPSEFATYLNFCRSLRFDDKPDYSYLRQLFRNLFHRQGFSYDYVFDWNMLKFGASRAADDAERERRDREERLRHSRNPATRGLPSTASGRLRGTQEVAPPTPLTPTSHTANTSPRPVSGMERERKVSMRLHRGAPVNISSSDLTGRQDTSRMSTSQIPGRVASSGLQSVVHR", "chain of UniProt P08069 (whole entry, looked up)": "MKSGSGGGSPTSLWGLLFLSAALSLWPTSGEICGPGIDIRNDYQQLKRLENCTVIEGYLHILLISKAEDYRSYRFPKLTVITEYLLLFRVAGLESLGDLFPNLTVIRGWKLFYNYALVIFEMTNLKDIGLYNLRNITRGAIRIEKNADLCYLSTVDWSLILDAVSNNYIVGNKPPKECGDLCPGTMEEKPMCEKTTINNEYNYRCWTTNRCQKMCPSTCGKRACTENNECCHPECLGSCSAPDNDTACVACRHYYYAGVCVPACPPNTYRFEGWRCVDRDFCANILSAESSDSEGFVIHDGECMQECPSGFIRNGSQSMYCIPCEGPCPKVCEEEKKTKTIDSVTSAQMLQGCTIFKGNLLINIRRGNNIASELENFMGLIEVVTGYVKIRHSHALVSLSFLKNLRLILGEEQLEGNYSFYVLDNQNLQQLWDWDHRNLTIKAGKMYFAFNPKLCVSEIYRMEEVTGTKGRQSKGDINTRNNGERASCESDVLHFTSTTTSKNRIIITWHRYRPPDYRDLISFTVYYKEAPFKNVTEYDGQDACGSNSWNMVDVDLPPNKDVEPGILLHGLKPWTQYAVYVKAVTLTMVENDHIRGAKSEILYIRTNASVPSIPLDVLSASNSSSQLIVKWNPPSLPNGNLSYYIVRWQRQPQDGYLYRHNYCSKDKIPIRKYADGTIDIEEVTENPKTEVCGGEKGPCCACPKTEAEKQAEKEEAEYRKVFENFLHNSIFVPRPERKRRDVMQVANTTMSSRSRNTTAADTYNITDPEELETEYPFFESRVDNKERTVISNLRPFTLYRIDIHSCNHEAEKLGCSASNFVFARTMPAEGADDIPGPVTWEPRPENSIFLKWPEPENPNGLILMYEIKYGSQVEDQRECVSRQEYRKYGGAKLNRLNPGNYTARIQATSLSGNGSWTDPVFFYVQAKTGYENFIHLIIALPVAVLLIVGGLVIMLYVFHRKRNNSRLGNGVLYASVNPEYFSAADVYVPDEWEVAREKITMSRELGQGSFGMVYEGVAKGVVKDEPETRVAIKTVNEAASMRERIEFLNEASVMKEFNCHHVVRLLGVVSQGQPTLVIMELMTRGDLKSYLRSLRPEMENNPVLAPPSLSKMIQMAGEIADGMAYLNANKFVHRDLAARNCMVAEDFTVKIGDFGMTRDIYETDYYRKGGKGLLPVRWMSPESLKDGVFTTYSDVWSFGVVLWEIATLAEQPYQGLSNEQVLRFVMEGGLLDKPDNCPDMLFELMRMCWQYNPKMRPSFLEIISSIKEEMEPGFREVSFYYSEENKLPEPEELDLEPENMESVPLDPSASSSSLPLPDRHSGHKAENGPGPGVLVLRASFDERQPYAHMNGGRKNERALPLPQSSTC", "chain of UniProt P42680 (whole entry, looked up)": "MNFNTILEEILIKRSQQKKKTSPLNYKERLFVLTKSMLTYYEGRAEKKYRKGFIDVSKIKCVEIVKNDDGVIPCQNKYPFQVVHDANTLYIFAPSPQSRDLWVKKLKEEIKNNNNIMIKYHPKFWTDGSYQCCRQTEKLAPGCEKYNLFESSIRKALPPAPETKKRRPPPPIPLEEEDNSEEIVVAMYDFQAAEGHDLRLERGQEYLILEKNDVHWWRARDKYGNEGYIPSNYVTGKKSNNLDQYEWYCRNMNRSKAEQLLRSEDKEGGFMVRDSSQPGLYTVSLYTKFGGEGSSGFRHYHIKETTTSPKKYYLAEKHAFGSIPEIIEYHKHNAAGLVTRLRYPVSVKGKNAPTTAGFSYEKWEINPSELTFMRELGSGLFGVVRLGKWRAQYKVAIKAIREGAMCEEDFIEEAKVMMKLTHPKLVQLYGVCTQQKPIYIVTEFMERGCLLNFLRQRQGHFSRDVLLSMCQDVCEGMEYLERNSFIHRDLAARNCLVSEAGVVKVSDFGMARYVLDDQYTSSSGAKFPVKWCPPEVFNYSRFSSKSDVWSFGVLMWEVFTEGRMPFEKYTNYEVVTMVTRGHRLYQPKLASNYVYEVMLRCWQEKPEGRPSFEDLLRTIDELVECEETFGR", "chain of UniProt Q9NQU5 (whole entry, looked up)": "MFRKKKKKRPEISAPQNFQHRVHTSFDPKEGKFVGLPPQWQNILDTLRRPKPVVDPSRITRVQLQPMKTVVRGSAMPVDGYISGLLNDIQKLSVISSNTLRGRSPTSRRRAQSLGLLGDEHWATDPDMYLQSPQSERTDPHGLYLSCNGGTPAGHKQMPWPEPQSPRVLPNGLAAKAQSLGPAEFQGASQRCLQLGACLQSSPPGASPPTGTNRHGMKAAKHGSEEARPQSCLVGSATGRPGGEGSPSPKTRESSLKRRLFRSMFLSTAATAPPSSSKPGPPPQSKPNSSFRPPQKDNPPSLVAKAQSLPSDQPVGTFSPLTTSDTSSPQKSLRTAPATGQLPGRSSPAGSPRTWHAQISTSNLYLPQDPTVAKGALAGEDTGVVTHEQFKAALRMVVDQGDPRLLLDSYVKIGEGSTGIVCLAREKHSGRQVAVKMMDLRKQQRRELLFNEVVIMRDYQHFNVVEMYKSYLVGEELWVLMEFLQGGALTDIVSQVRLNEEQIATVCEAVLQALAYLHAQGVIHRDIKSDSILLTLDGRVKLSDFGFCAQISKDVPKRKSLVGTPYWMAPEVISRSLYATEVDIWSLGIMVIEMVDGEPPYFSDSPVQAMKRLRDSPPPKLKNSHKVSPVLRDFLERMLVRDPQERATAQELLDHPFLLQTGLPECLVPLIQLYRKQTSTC"}
{"data": "Block 1", "target": "Beta-1 adrenergic receptor (ADRB1, Homo sapiens, UniProt P08588)", "action": "antagonist", "chain of UniProt P08588 (whole entry, looked up)": "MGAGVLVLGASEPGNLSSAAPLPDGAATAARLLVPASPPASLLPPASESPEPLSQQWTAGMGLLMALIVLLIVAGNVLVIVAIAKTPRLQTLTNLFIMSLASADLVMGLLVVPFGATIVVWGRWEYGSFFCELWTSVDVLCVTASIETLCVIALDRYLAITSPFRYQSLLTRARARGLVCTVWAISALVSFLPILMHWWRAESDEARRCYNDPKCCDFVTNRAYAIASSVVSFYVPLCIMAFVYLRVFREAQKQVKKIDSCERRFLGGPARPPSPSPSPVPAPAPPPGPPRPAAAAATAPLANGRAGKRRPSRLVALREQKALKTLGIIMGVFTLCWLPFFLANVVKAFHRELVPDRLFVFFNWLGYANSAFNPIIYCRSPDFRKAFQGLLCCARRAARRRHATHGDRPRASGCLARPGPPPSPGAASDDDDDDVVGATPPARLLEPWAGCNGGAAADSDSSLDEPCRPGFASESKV"}
{"Compound": "O=C(COc1ccccc1)Nc1ccc([C@@H](O)[C@H]2COCC(=O)N2Cc2ccc(F)cc2)cc1", "IC50 [µM]": "≥ 100"}
{"Compound": "Cc1cc(C)n(-c2ccc(=O)n(C3CCN(c4ccc5ccccc5n4)CC3)n2)n1", "IC50 [µM]": "≥ 100"}
{"Compound": "COCCCNc1ncccc1-c1cc(-c2ccccc2)nc2c(C)noc12", "IC50 [µM]": "≥ 100"}
{"Compound": "O=C(Nc1ccc([C@@H](O)[C@H]2COCC(=O)N2Cc2ccc(F)cc2)cc1)c1ccccc1", "IC50 [µM]": "≥ 100"}
{"Compound": "COc1cc([S+](=O)([O-])N2CCN(c3ccccc3OC)CC2)c(C)cc1C", "IC50 [µM]": "≥ 100"}
{"Compound": "O=C(c1cc(-c2ccc(F)cc2)nc2ccccc12)N1CCCC(c2nc(C3CCOCC3)no2)C1 (stereo not drawn)", "IC50 [µM]": "≥ 100"}
{"data": "Block 2", "SMILES": "Oc1ccc(-c2nc(-c3ccncc3)c(-c3ccc(F)cc3)[nH]2)cc1", "observed": "enzyme activity", "action": "inhibitor", "tested at": "0.5 µM", "reference": "control"}
{"target": "Mitogen-activated protein kinase kinase kinase 20 (MAP3K20, Homo sapiens, UniProt Q9NYL2)", "remaining activity [%]": 98.8}
{"target": "Vascular endothelial growth factor receptor 1 (FLT1, Homo sapiens, UniProt P17948)", "remaining activity [%]": 90.6}
{"target": "Cyclin-dependent kinase 2, with cyclin E (CDK2, Homo sapiens, UniProt P24941)", "remaining activity [%]": 90.6}
{"target": "Tyrosine-protein kinase Tec (TEC, Homo sapiens, UniProt P42680)", "remaining activity [%]": 106}
{"target": "Ephrin type-A receptor 6 (EPHA6, Homo sapiens, UniProt Q9UF33)", "remaining activity [%]": 57.3}
{"target": "SRSF protein kinase 1 (SRPK1, Homo sapiens, UniProt Q96SB4)", "remaining activity [%]": 109}
{"target": "Dual specificity protein kinase CLK2 (CLK2, Homo sapiens, UniProt P49760)", "remaining activity [%]": 105}
{"target": "Tyrosine-protein kinase receptor TYRO3 (TYRO3, Homo sapiens, UniProt Q06418)", "remaining activity [%]": 97.5}
{"target": "Muscle, skeletal receptor tyrosine-protein kinase (MUSK, Homo sapiens, UniProt O15146)", "remaining activity [%]": 86.8}
{"target": "Protein kinase C zeta type (PRKCZ, Homo sapiens, UniProt Q05513)", "remaining activity [%]": 109}
{"target": "Serine/threonine-protein kinase SIK2 (SIK2, Homo sapiens, UniProt Q9H0K1)", "remaining activity [%]": 83.4}
{"target": "Casein kinase I isoform delta (CSNK1D, Homo sapiens, UniProt P48730)", "remaining activity [%]": 16.8}
{"target": "Casein kinase I isoform epsilon (CSNK1E, Homo sapiens, UniProt P49674)", "remaining activity [%]": 32.7}
{"target": "Serine/threonine-protein kinase PAK 6 (PAK6, Homo sapiens, UniProt Q9NQU5)", "remaining activity [%]": 104}
{"target": "Ephrin type-A receptor 2 (EPHA2, Homo sapiens, UniProt P29317)", "remaining activity [%]": 91.3}
{"target": "Insulin-like growth factor 1 receptor (IGF1R, Homo sapiens, UniProt P08069)", "remaining activity [%]": 108}
{"data": "Block 3", "target": "Histamine H2 receptor (HRH2, Homo sapiens, UniProt P25021)", "observed": "binding", "technique": "radioligand binding", "tested at": "10 µM", "chain of UniProt P25021 (whole entry, looked up)": "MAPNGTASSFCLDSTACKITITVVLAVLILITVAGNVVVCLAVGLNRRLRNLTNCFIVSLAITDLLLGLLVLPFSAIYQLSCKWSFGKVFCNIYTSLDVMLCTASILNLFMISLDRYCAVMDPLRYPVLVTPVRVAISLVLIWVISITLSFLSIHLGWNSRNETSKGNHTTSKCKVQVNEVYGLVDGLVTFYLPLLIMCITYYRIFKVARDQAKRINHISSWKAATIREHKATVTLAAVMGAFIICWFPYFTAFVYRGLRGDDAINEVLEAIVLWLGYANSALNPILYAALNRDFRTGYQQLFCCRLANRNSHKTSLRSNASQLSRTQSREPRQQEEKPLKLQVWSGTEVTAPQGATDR"}
{"SMILES": "COc1cc(-c2cn(C3CCc4ccccc4N(CC(F)(F)F)C3=O)nn2)ccc1-n1ccc(C)n1 (stereo not drawn)", "inhibition [%]": 4.13}
{"SMILES": "Cc1nc(N2CC[C@@H](O)C2)ncc1-c1cc(C(F)(F)F)cc2[nH]ncc12", "inhibition [%]": -8.45}
{"SMILES": "Cc1nc(Cc2cccc(C(F)(F)F)c2)sc1-c1ccc(C(N)=O)nc1", "inhibition [%]": 6.05}
{"SMILES": "CC(=O)c1c(NS(C)(=O)=O)c2cc(-c3ccc(Cl)cc3)c(-c3ccc(Cl)cc3Cl)nc2n(C)c1=O", "inhibition [%]": 13.8}
{"data": "Block 4", "organism": "Plasmodium berghei", "action": "inhibitor", "cells": "Huh-7", "strain": "GFP-expressing, liver stage", "tested at": "10 µM", "time": "24 h", "reference": "untreated control"}
{"SMILES": "CCCCCCCCN[C@@H](C)[C@H](O)c1ccc(SC(C)C)cc1 (racemic)", "infection rate [%]": 26.4}
{"SMILES": "CC[C@]1(O)C[C@H]2CN(CCc3c([nH]c4ccccc34)[C@@](C(=O)OC)(c3cc4c(cc3OC)N(C=O)[C@H]3[C@@](O)(C(=O)OC)[C@H](OC(C)=O)[C@]5(CC)C=CCN6CC[C@]43[C@@H]65)C2)C1", "infection rate [%]": 75}
{"SMILES": "CCCCC(=O)N(Cc1ccc(-c2ccccc2-c2nnn[nH]2)cc1)[C@H](C(=O)O)C(C)C", "infection rate [%]": 89.2}
{"SMILES": "N=C(N)NS(=O)(=O)c1ccc(N)cc1", "infection rate [%]": 101}
{"SMILES": "Cc1cc2nc3c(=O)[nH]c(=O)nc-3n(C[C@H](O)[C@H](O)[C@H](O)CO)c2cc1C", "infection rate [%]": 80.5}
{"SMILES": "Cn1cnc2c1c(=O)[nH]c(=O)n2C", "infection rate [%]": 90}
{"SMILES": "CO[C@H]1C[C@H](O[C@H]2[C@H](C)[C@@H](O[C@@H]3O[C@H](C)C[C@H](N(C)C)[C@H]3OC(C)=O)[C@@H](C)C[C@@]3(CO3)C(=O)[C@H](C)[C@@H](OC(C)=O)[C@@H](C)[C@@H](C)OC(=O)[C@@H]2C)O[C@@H](C)[C@@H]1OC(C)=O", "infection rate [%]": 72}
{"note": "Excerpt of the above (block 2):"}
{"target": "Serine/threonine-protein kinase PAK 6 (PAK6, Homo sapiens, UniProt Q9NQU5)", "remaining activity [%]": 104}
{"target": "Insulin-like growth factor 1 receptor (IGF1R, Homo sapiens, UniProt P08069)", "remaining activity [%]": 108}
